Assay results pooled from the literature.
Every numbered part comes from another study and shows a few of its results, in no order. Substitutions count along the parent as printed.

Series 1 — technique: protein-binding microarray; form: double-stranded DNA, one strand shown; sample: in vitro; concentration: 2540 nM top; setting: 60-bp whole probe; with: salmon DNA 0.4 mg/ml; reference: random background probes; direction: higher = stronger binding; constant ends, left off below: GCCTAGCAC … GTCTTGATTCGCTTGACGCTGCTG
Target: Interferon regulatory factor 3, full length, phosphomimetic (IRF3, Homo sapiens, UniProt Q14653, residues 1-427, S386D/S396D/S398D/S402D/T404D/S405D)
Residues (chain): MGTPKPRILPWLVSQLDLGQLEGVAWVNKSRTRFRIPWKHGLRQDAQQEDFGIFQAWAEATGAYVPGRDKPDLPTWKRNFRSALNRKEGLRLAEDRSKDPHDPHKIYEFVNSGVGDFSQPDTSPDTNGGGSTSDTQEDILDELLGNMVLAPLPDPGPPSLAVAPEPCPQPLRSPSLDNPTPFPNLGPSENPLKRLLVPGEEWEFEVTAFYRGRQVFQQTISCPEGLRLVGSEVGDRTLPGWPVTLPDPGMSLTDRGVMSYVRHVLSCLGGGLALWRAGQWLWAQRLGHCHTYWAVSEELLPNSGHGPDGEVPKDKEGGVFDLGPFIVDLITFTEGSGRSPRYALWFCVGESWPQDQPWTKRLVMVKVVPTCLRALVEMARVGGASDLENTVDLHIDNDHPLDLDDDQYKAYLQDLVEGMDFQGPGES
Strand	fitted relative affinity
TTAGGTTTCGGGACTGGTTTAGTGCTA	4.95 z-score
GACGATTTCAGTATCAAGACGTGCTAG	2.15 z-score
TTAGAACTGGGGTTACGATTAGTGCTA	-0.441 z-score
TTAGATTTCAATATCGATTAGTGCTAG	1.4 z-score
TGGTTTTACTTTCTATCTCTGTGCTAG	5.91 z-score
GACAGTATCGACACTGGGGACGTGCTA	0.472 z-score
CTTTCTTTAACATATTCTCTTGTGCTA	5.56 z-score
TTAGGCATCGGTTTCGGTTAGTGCTAG	4.51 z-score
TTAGGTATCCTAATCCTTTAGTGCTAG	4.09 z-score
TTAGATTTCAGACTGCATTAGTGCTAG	0.746 z-score
GACTGTTTCGGGTTTCGGGACGTGCTA	4.98 z-score
GACGATATCAGGCTCGAGACGTGCTAG	0.0479 z-score
TCAATTTTCAGAATTTAACTGTGCTAG	1.32 z-score
TCAGGTTTTACTTTCTAACTGTGCTAG	3.65 z-score
TTAGGACTGGGTCTCGGGTAGTGCTAG	-0.929 z-score
TTAGGACTGGGGTTTCCGTTAGTGCTA	1.01 z-score
GACGATCTCAGATTGGAGACGTGCTAG	0.602 z-score

Series 2 — technique: DHFR PCA, deep sequencing; sample: yeast; with: (+)-ABA 1.4 µM; reference: wild-type fitted maximum; direction: higher = stronger binding
Target: ABI1, truncated, D143A, DHFR fusion (Arabidopsis thaliana)
Setting: methotrexate growth selection, single substitutions
Parent: PYL1, truncated, DHFR fusion (Arabidopsis thaliana); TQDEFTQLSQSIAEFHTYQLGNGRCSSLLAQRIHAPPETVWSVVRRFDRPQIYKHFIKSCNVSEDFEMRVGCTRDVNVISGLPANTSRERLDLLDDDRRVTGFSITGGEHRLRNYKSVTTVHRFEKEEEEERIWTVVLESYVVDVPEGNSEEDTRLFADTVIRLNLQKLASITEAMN; partner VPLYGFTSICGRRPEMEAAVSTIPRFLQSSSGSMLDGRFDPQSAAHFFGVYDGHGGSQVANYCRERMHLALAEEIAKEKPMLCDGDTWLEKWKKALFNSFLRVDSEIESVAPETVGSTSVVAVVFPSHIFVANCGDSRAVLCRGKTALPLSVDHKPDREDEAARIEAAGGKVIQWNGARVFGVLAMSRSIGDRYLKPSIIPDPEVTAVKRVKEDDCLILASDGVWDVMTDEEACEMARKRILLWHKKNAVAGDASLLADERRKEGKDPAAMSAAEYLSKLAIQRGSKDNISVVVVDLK
Change	relative binding score
D3A	55%
L166R	10.7%
S117E	-14.7%
C60V	53%
I79N	8.52%
G108A	-1.72%
I172W	-2.76%
S26C	42.9%
I33D	1.41%
E127W	39.6%
D96A	2.7%
F124A	39.8%
S140P	11.4%
D96N	19.9%
I105T	-0.463%
S140L	3.56%
Q7V	65.2%
E64H	58.3%
D48F	-1.63%
R69G	34.2%
E64C	35.3%
K126R	67.2%
I33A	-2.07%
T6P	72.6%

Series 3 — technique: protein-binding microarray; form: double-stranded DNA, one strand shown; sample: in vitro; concentration: not given; direction: higher = stronger binding
Target: Protein max, full length (MAX, Homo sapiens, UniProt P61244-2, residues 1-151)
Setting: k-mer, scored over probes, only values ≥0.25
Strand	E-score
GGGATCAC	0.259
ATCTCGTG	0.365
ACACCACG	0.362
CCTCGTGC	0.465
GCTCCCCA	0.26
ATTGCACG	0.366
ACTCACAT	0.309
CATGTACG	0.26
CATGCAGG	0.356
AGCATGTC	0.393
ATGTGCGA	0.361
CGTGAGCA	0.294
CACACGCG	0.451
CACGAGGC	0.461
AGGCACGA	0.264
ACCACGAG	0.436

Series 4 — target: UBE2G2 UBC core domain (UniProt P60604); technique: yeast two-hybrid; sample: yeast; setting: mostly zero background; reference: not given; direction: higher = stronger interaction
B1: ARIH2 RING domain (UniProt O95376); chain HVPTSHPPHHCAVCMQFVRKENLLSLACQHQFCRSCWEQHCSVLVKDGVGVGVSCMAQDCPLRTPEDFVF
B2: NFX1 RING domain (UniProt Q12986); chain IEQLTTEKYECMVCCELVRVTAPVWSCQSCYHVFHLNCIKKWARSPASQADGQSGWRCPACQNVSAHVPNTY
B3: RNF182 RING domain (UniProt Q8N6D2); chain AESQASDELECKICYNRYNLKQRKPKVLECCHRVCAKCLYKIIDFGDSPQGVIVCPFCRFETCLPDDEV
B4: ZNRF4 RING domain (UniProt Q8WWF5); chain VRTFTWHNDLCAICLDEYEEGDQLKILPCSHTYHCKCIDPWFSQAPRRSCPVCKQSVAATEDSF
B5: MID2 RING domain (UniProt Q9UJV3); chain KMETLESELTCPICLELFEDPLLLPCAHSLCFSCAHRILVSSCSSGESIEPITAFQCPTCRYVISLNHRGL
B6: MKRN3 RING domain (UniProt Q13064); chain FAVQRGMDKVCGICMEVVYEKANPNDRRFGILSNCNHSFCIRCIRRWRSARQFENRIVKSCPQCRVTSELVIPSE
B7: ZMYND11 RING domain (UniProt Q15326); chain DEIDWETENHDWYCFECHLPGEVLICDLCFRVYHSKCLSDEFRLRDSSSPWQCPVCRSIKKKNTNKQEM
Construct (chain): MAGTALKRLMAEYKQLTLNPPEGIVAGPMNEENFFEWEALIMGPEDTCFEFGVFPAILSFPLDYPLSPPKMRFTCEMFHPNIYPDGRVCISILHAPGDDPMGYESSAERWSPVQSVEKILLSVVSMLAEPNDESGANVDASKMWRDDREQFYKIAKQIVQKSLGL
Sequence	lacZ reporter activity
B1 (ARIH2 RING domain)	0
B2 (NFX1 RING domain)	0
B3 (RNF182 RING domain)	0
LEALSSDFLACKICLEQLRAPKTLPCLHTYCQDCLAQLADGGRVRCPECRETVPVPPEGV (TRIM56 RING domain (UniProt Q9BRZ2))	0
B4 (ZNRF4 RING domain)	4780
FDPPLESKYECPICLMALREAVQTPCGHRFCKACIIKSIRDAGHKCPVDNEILLENQLFP (TRAF6 RING domain (UniProt Q9Y4K3))	0
B5 (MID2 RING domain)	0
B6 (MKRN3 RING domain)	0
B7 (ZMYND11 RING domain)	0

Series 5 — target: CCNA1, cyclin fold, Cln2 fusion (human); technique: yeast growth competition, sequencing; sample: yeast; setting: weak parent motif; reference: not given; direction: higher = stronger binding
Parent: MASTL docking peptide (human); PMIAKNLMCELDE
Change	normalised enrichment score
C9H	-0.246
I3W	0.145
K5H	-0.121
E10L	0.391
L11A	-0.0253
L7R	0.0056
A4P	0.344
L11Y	0.186
D12N	0.298
A4L	-0.243
L11Q	0.256
K5I	0.059
D12L	0.0454
K5V	-0.24
I3K	0.0868
A4H	0.0849
E10Q	0.495
D12E	0.0636
M8Y	0.0888
I3Y	-0.0127
N6E	-0.305
N6C	0.0349
M8H	0.121
M8A	0.0104
M8N	-0.079
